Results from different studies.
Each line is one published result; not all experiments were run side by side. ± gives the spread as reported.
ACTA1 F-actin: ACTA1 F-actin (Oryctolagus cuniculus, UniProt P68135)
ACTA1: ACTA1 (Oryctolagus cuniculus, UniProt P68135)
B1: Palld 1022-1126 (Mus musculus, UniProt Q9ET54); chain NATAPFFEMKLKHYKIFEGMPVTFTCRVAGNPKPKIYWFKDGKQISPKSDHYTIQRDLDGTCSLHTTASTLDDDGNYTIMAANPQGRVSCTGRLMVQAVNQRGRS
B2: TWF1 (Saccharomyces cerevisiae, UniProt P53250); SNAP-Surface-549 label; chain MSTQSGIVAEQALLHSLNENLSADGIVIIIAKISPDSTSVHQTQVARSFEELVQLASQEREPLYIFYKPEGLDKYFFVSFIPDGSPVRSRMLYASTKNTLARQVGSNSLSTEQPLITDAQDLVDLKNFDSARPAGQNKPLTHDEEMQIEINKQQALLRKNTSVKLVSQDSASPLSLTFRVNSEKPINEILDSEGKNLIIFQIDPSNETIQIVQSDTCPSVDELYIDLPGPSYTIFRQGDSSFFIYSCPSGSKVKDRMIYASNKNGFINYLKNDQKIAFSKVVEIGDFVELDKSLLMATNKEDSLDHGSNPDLPNKSNLKFNKPKGPLRKRRT

`B1 (Palld 1022-1126)` — result for “bundled F-actin fraction”: 11.5% (ACTA1 F-actin; low-speed co-sedimentation; 5 µM).
For `SPTBN2 actin-binding domain T271I (sequence not shown)`, the Kd was less than 1 µM (ACTA1 F-actin; co-sedimentation).
`TMSB4X mature (Homo sapiens, UniProt P62328)` has a Kd of 3.2 ± 0.6 µM (ACTA1 G-actin monomer, NT-647 dye label (Oryctolagus cuniculus, UniProt P68135); MST).
Under binding, `PLS3 (Homo sapiens, UniProt P13797)` is recorded as “binds” (ACTA1; fluorescence microscopy; video-enhanced).
With `DNM1L fragment (Homo sapiens) (sequence not shown)` the Kd was 1.2 µM (ACTA1 filaments (Oryctolagus cuniculus, UniProt P68135); co-sedimentation; apparent, with: NaCl 140 mM).
With `SPTBN2 actin-binding domain K65E (sequence not shown)` the Kd was less than 1 µM (ACTA1 F-actin; co-sedimentation).
For `PALLD Ig3-Ig4 tandem del6 linker residues`, the Kd was 9.1 ± 1.5 µM (ACTA1 F-actin; co-sedimentation).
With `SPTBN2 actin-binding domain V58M (sequence not shown)` the Kd was 10.2 µM (ACTA1 F-actin; co-sedimentation).
`Myo31DF (Drosophila melanogaster, UniProt Q23978)` has a speed of 8 nm/s (ACTA1; bead movement on actin filament, motility assay).
`PALLD Ig3-Ig4 tandem x, scrambled linker` gave a Kd of 4 ± 1.3 µM (ACTA1 F-actin; co-sedimentation).
The Kd of `SPTBN2 actin-binding domain L253P (sequence not shown)` is reported as less than 1 µM (ACTA1 F-actin; co-sedimentation).
`PALLD Ig3-Ig4 tandem I179V/N224S` — result for “bundled F-actin fraction”: 49.7% (ACTA1 F-actin; low-speed co-sedimentation; 5 µM).
`SPTBN2 actin-binding domain D255G (sequence not shown)` has a Kd of 7.3 µM (ACTA1 F-actin; co-sedimentation).
For `PALLD Ig3-Ig4 tandem del21 linker residues`, “bundled F-actin fraction” read 82.1% (ACTA1 F-actin; low-speed co-sedimentation; 5 µM).
For `YAP1 (Homo sapiens)`, the dissociation half-life was 3.07 ± 0.27 min (ACTA1 G-actin (Oryctolagus cuniculus, UniProt P68135); SPR).
`B2 (TWF1)` gave a koff of 2.26 ± 0.3 s⁻¹ (ACTA1 F-actin filaments, Alexa-488 label (Oryctolagus cuniculus, UniProt P68135); single-molecule TIRF).

Some of these lines once more:
`Myo31DF (Drosophila melanogaster, UniProt Q23978)` has a speed of 8 nm/s (ACTA1; bead movement on actin filament, motility assay).
`PALLD Ig3-Ig4 tandem x, scrambled linker` gave a Kd of 4 ± 1.3 µM (ACTA1 F-actin; co-sedimentation).
